{"data": "Results of several laboratories", "note": "A part holds a random share of what one study measured."}
{"data": "Set 1", "target": "Ras GTPase-activating protein-binding protein 1, RRM domain (G3BP1, Homo sapiens, UniProt Q13283)", "method": "RNA Bind-n-Seq", "form": "RNA", "sample": "in vitro", "tested at": "1 µM", "notes": "whole 134-nt RNA, ends assumed", "with": "150 mM KCl", "reference": "input library", "direction": "higher = stronger binding", "shared flanks, not repeated": "GGGAGUUCUACAGUCCGACGAUC … UGGAAUUCUCGGGUGUCAAGG", "chain of UniProt Q13283 (whole entry, looked up)": "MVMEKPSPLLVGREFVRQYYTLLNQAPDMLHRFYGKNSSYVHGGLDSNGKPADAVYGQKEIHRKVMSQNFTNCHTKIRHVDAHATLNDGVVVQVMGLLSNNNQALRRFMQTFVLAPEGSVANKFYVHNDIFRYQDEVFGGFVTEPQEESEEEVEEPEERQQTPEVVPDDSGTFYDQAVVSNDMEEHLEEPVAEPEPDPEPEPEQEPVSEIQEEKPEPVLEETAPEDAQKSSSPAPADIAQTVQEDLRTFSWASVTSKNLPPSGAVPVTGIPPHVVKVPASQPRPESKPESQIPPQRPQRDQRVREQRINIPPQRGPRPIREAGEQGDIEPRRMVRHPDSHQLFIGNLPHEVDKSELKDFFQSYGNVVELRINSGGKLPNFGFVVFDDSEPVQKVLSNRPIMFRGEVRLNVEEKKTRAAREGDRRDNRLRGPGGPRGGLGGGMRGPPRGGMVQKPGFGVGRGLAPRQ"}
{"Strand": "GUCCUGUGCUACACAUCGUAUGUACCGAAUCGGGUUUUUUGGGUUUUUUGGUUUUUUGGAAAGUAUUAUGUUACGCCGUUCGGAUCUGCA", "log2 enrichment": -0.19}
{"Strand": "AGUCCUGUGCUACACAUCGUAUGUACCGAAUCGGGAAAAAGGGUGGGAAAAAAAGGGAAAGUAUUAUGUUACGCCGUUCGGAUCUGCACU", "log2 enrichment": 0.466}
{"Strand": "UGGCCCUGGUGGCAUGCGGGGAGGAAGAGGUGGCCUCAUGGAUCGUGGUGGUCCCGGUGGAAUGUGCAGAGGUGGCCGUGGUGGAGACAG", "log2 enrichment": 1.77}
{"Strand": "CACAGACAACACGCACCCACACAGACACAGAGGGAAGGGGUUGGGAUGGGGACAGCGUGCACAGCAGGGCGGGGUAGGACCCCAGCCCCU", "log2 enrichment": 0.00113}
{"Strand": "CAAGUCCUGUGCUACACAUCGUAUGUACCGAAUCGGGUUUGGGUUUGGGUUUGGGGAAAGUAUUAUGUUACGCCGUUCGGAUCUGCACUU", "log2 enrichment": 0.824}
{"Strand": "ACCAUGCAGGUGGGCAUCUUUGGGAAGUGGGGCAAGGGGGGGAUAGGGAGGGGGGUAAGACUUUGGGAACAGGUGGUCCCAGGUCGUUUC", "log2 enrichment": 1.13}
{"Strand": "GGGUGGACACUGACGAGCUGGACAGCAACGUGGACGACUGGGAAGAGGAGACCAUUGAGUUCUUCGUCACUGAAGAAAUCAUUCCCCUCG", "log2 enrichment": -0.275}
{"data": "Set 2", "target": "Interferon regulatory factor 5, full length, phosphomimetic (IRF5, Homo sapiens, UniProt Q13568-2, residues 1-514, S451D/S453D/S456D/S462D)", "method": "protein-binding microarray", "form": "double-stranded DNA, one strand shown", "sample": "in vitro", "tested at": "940 nM top", "notes": "60-bp whole probe", "with": "salmon DNA 0.4 mg/ml", "reference": "random background probes", "direction": "higher = stronger binding", "shared flanks, not repeated": "GCCTAGCAC … GTCTTGATTCGCTTGACGCTGCTG"}
{"Strand": "TTAGATTTCGGGTATCGATTCGTGCTA", "fitted relative affinity [z-score]": 3.71}
{"Strand": "TCAATTCTCTGCTTGCGACTGTGCTAG", "fitted relative affinity [z-score]": 0.992}
{"Strand": "TAAGGACTGGGTTTCGGTTAGTGCTAG", "fitted relative affinity [z-score]": 6.75}
{"Strand": "GACGATGTCAGTCTCGAGACGTGCTAG", "fitted relative affinity [z-score]": 0.596}
{"Strand": "TCATCTTTTATGCTCTTACTGTGCTAG", "fitted relative affinity [z-score]": 0.999}
{"Strand": "TTAGCACTGGGTCTCGGTTAGTGCTAG", "fitted relative affinity [z-score]": 1.75}
{"Strand": "GACGGTTTCGACTATCGGGATGTGCTA", "fitted relative affinity [z-score]": 7.91}
{"Strand": "GACGATTTCGGCACTGGAGACGTGCTA", "fitted relative affinity [z-score]": -0.046}
{"Strand": "TTAGATTTCAGTCTCGATTTGTGCTAG", "fitted relative affinity [z-score]": 4.04}
{"Strand": "GACGGACTGGGTATCGAGACGTGCTAG", "fitted relative affinity [z-score]": 0.739}
{"Strand": "TTAGATAACGGGACTGGATTAGTGCTA", "fitted relative affinity [z-score]": -0.158}
{"data": "Set 3", "target": "Histone acetyltransferase KAT6A, both winged helices, GST fusion (KAT6A, Homo sapiens, UniProt Q92794, residues 1-181)", "method": "protein binding microarray", "form": "double-stranded DNA, one strand shown", "sample": "in vitro", "tested at": "not given", "notes": "8-mer, flanks averaged, mean of 2 arrays, mostly near background", "reference": "not given", "direction": "higher = stronger binding", "Target sequence (chain)": "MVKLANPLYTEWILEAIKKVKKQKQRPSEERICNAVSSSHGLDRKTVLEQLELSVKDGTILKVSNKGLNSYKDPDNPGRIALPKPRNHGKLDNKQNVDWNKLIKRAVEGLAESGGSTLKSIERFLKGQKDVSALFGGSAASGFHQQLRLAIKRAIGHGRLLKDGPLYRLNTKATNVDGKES"}
{"Strand": "CCAGAAAA", "E-score": -0.307}
{"Strand": "CCACTCAC", "E-score": -0.143}
{"Strand": "AGGTAATC", "E-score": -0.0992}
{"Strand": "AGACACAA", "E-score": -0.15}
{"Strand": "AAATCTCA", "E-score": -0.136}
{"Strand": "GGGGCGAA", "E-score": -0.0359}
{"Strand": "GGAAAGCC", "E-score": -0.0194}
{"Strand": "AATCTGGT", "E-score": -0.167}
{"Strand": "ATTACCGA", "E-score": 0.0629}
{"Strand": "ATCCCACG", "E-score": -0.119}
{"Strand": "AGGGGTGA", "E-score": -0.241}
{"Strand": "TATTGCCA", "E-score": -0.154}
{"Strand": "ACGGAAAC", "E-score": 0.345}
{"data": "Single results of other studies"}
{"Molecule": "PhoQ, residues 284 288 289 292 302 303 TTSMTC", "target": "PhoP, residues 12 14 15 18 19 QWHVF (Escherichia coli, UniProt P23836)", "assay": "Sort-seq, refers to: YFP reporter", "test system": "E. coli", "setting": "PhoQ-PhoP variant library, with: 10 µM Mg2+", "how to read": "reference: high Mg2+ state, higher = stronger signaling", "measurement": "fold induction", "value": 2.67}
